Measurements gathered from unrelated publications.
Lines come from different studies, so protocols differ. Several values in a cell are separate wells, animals, samples, runs or records. ± gives the spread as reported.
Technique: steady-state kinetics
B1: Tcur_2987 (Thermomonospora curvata, UniProt D1A807); chain ACSEERAAGARPSATQTTGTATEPFHGPHQAGIATPPQAHAVFLGLDLRKGTGRKELGRLMRLLTDDARRLTQGRPALADPEPDLAPLPSRLTFTFGFGPGLFKAAGLEKQRPEGLRPLPPFKVDRLEDRWSGGDLLVQICCDDPITLAHALRMTVKDARAFTRVRWVQRGFRRSPGVQSSGATQRNLMGQLDGTVNPVPGTADFDQAVWVQDGPEWLRGGTTLVLRRIRMELEKWDEADPAGKEFAVGRRLTSGAPLTGRHEHDEPDFDAVDSAGFPVIAENAHIRLAHVDSPRLRMLRRPYNYDEGLTADGRSDAGLLFAAYQADIDRQFIPVQRRLDEGGDLLNLWTTPIGSAVFAIPPGCDENGWIGQGLLG
B2: pyc H216N (Rhizobium etli, UniProt Q2K340); chain MPISKILVANRSEIAIRVFRAANELGIKTVAIWAEEDKLALHRFKADESYQVGRGPHLARDLGPIESYLSIDEVIRVAKLSGADAIHPGYGLLSESPEFVDACNKAGIIFIGPKADTMRQLGNKVAARNLAISVGVPVVPATEPLPDDMAEVAKMAAAIGYPVMLKASWGGGGRGMRVIRSEADLAKEVTEAKREAMAAFGKDEVYLEKLVERARNVESQILGDTHGNVVHLFERDCSVQRRNQKVVERAPAPYLSEAQRQELAAYSLKIAGATNYIGAGTVEYLMDADTGKFYFIEVNPRIQVEHTVTEVVTGIDIVKAQIHILDGAAIGTPQSGVPNQEDIRLNGHALQCRVTTEDPEHNFIPDYGRITAYRSASGFGIRLDGGTSYSGAIITRYYDPLLVKVTAWAPNPLEAISRMDRALREFRIRGVATNLTFLEAIIGHPKFRDNSYTTRFIDTTPELFQQVKRQDRATKLLTYLADVTVNGHPEAKDRPKPLENAARPVVPYANGNGVKDGTKQLLDTLGPKKFGEWMRNEKRVLLTDTTMRDGHQSLLATRMRTYDIARIAGTYSHALPNLLSLECWGGATFDVSMRFLTEDPWERLALIREGAPNLLLQMLLRGANGVGYTNYPDNVVKYFVRQAAKGGIDLFRVFDCLNWVENMRVSMDAIAEENKLCEAAICYTGDILNSARPKYDLKYYTNLAVELEKAGAHIIAVKDMAGLLKPAAAKVLFKALREATGLPIHFHTHDTSGIAAATVLAAVEAGVDAVDAAMDALSGNTSQPCLGSIVEALSGSERDPGLDPAWIRRISFYWEAVRNQYAAFESDLKGPASEVYLHEMPGGQFTNLKEQARSLGLETRWHQVAQAYADANQMFGDIVKVTPSSKVVGDMALMMVSQDLTVADVVSPDREVSFPESVVSMLKGDLGQPPSGWPEALQKKALKGEKPYTVRPGSLLKEADLDAERKVIEKKLEREVSDFEFASYLMYPKVFTDFALASDTYGPVSVLPTPAYFYGLADGEELFADIEKGKTLVIVNQAVSATDSQGMVTVFFELNGQPRRIKVPDRAHGATGAAVRRKAEPGNAAHVGAPMPGVISRVFVSSGQAVNAGDVLVSIEAMKMETAIHAEKDGTIAEVLVKAGDQIDAKDLLAVYGG
B3: LYS12 D271N (Saccharomyces cerevisiae, UniProt P40495); chain SLTIGLIPGDGIGKEVIPAGKQVLENLNSKHGLSFNFIDLYAGFQTFQETGKALPDETVKVLKEQCQGALFGAVQSPTTKVEGYSSPIVALRREMGLFANVRPVKSVEGEKGKPIDMVIVRENTEDLYIKIEKTYIDKATGTRVADATKRISEIATRRIATIALDIALKRLQTRGQATLTVTHKSNVLSQSDGLFREICKEVYESNKDKYGQIKYNEQIVDSMVYRLFREPQCFDVIVAPNLYGDILSNGAAALVGSLGVVPSANVGPEIVIGEPCHGSAPDIAGKGIANPIATIRSTALMLEFLGHNEAAQDIYKAVDANLREGSIKTPDLGGKASTQQVVDDVLSRL
B4: Paox H64A (Mus musculus, UniProt Q8C0L6); chain MAFPGPRVLVVGSGIAGLGAAQKLCSHRAAPHLRVLEATASAGGRIRSERCFGGVVELGAHWIAGPSQDNPVFQLAAEFGLLGEKELSEENQLVDTGGHVALPSMIWSSSGTSVSLELMTEMARLFYGLIERTREFLNESETPMASVGEFLKKEISQQVASWTEDDEDTRKRKLAILNTFFNIECCVSGTHSMDLVALAPFGEYTVLPGLDCILAGGYQGLTDRILASLPKDTVAFDKPVKTIHWNGSFQEAAFPGETFPVLVECEDGARLPAHHVIVTVPLGFLKEHQDTFFEPPLPAKKAEAIKKLGFGTNNKIFLEFEEPFWEPDCQFIQVVWEDTSPLQDTALSLQDTWFKKLIGFLVQPSFESSHVLCGFIAGLESEFMETLSDEEVLLSLTQVLRRVTGNPQLPAAKSVRRSQWHSAPYTRGSYSYVAVGSTGDDLDLMAQPLPEDGTGTQLQVLFAGEATHRTFYSTTHGALLSGWREADRLVSLWDSQVEQSRPRL
B5: ASRGL1 (Homo sapiens, UniProt Q7L266); chain 1 MNPIVVVHGGGAGPISKDRKERVHQGMVRAATVGYGILREGGSAVDAVEGAVVALEDDPEFNAGCGSVLNTNGEVEMDASIMDGKDLSAGAVSAVQCIANPIKLARLVMEKTPHCFLTDQGAAQFAAAMGVPEIPGEKLVTERNKKRLEKEKHEKGAQKTDCQKNLG; chain 2 TVGAVALDCKGNVAYATSTGGIVNKMVGRVGDSPCLGAGGYADNDIGAVSTTGHGESILKVNLARLTLFHIEQGKTVEEAADLSLGYMKSRVKGLGGLIVVSKTGDWVAKWTSTSMPWAAAKDGKLHFGIDPDDTTITDLP
B6: cyc1 L72V (Streptomyces coelicolor, UniProt Q9K499); chain MHAFPHGTTATPTAIAVPPSLRLPVIEAAFPRQLHPYWPKLQETTRTWLLEKRLMPADKVEEYADGLCYTDVMAGYYLGAPDEVLQAIADYSAWFFVWDDRHDRDIVHGRAGAWRRLRGLLHTALDSPGDHLHHEDTLVAGFADSVRRLYAFLPATWNARFARHFHTVIEAYDREFHNRTRGIVPGVEEYLELRRLTFAHWIWTDLLEPSSGCELPDAVRKHPAYRRAALLSQEFAAWYNDLCSLPKEIAGDEVHNLGISLITHHSLTLEEAIGEVRRRVEECITEFLAVERDALRFADELADGTVRGKELSGAVRANVGNMRNWFSSVYWFHHESGRYMVDSWDDRSTPPYVNNEAAGEK
Chain of UniProt O60656 (whole entry, looked up): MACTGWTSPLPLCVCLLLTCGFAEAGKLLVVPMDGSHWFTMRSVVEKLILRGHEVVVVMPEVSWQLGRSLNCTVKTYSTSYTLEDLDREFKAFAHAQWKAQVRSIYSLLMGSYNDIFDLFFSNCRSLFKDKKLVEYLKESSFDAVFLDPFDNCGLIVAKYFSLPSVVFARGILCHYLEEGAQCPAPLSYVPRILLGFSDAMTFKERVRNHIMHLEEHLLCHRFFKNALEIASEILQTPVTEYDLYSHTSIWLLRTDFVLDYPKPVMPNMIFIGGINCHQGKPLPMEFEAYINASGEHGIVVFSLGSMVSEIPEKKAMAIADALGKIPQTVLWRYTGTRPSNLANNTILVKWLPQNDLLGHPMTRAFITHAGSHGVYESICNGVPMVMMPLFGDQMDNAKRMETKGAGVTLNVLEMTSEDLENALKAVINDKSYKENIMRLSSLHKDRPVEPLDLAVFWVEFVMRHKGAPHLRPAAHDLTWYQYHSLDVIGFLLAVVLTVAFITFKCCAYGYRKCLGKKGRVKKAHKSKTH
Chain of UniProt P08253 (whole entry, looked up): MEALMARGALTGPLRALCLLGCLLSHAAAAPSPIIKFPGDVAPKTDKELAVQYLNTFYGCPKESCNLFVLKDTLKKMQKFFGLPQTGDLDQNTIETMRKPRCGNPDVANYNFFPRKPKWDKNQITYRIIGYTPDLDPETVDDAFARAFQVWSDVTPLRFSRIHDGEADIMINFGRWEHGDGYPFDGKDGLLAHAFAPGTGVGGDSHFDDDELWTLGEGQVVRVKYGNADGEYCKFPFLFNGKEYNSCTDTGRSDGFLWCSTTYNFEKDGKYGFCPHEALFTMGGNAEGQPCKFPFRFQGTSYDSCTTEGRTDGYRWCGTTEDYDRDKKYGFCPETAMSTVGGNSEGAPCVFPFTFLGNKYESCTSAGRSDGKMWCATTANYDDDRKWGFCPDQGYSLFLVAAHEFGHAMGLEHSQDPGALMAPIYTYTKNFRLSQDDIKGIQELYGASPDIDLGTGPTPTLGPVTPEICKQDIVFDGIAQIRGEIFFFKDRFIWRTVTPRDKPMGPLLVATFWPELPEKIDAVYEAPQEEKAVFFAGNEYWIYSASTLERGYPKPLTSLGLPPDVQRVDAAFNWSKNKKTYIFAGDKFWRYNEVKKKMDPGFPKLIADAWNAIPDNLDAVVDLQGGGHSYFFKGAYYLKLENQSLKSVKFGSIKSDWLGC
Chain of UniProt P07914 (whole entry, looked up): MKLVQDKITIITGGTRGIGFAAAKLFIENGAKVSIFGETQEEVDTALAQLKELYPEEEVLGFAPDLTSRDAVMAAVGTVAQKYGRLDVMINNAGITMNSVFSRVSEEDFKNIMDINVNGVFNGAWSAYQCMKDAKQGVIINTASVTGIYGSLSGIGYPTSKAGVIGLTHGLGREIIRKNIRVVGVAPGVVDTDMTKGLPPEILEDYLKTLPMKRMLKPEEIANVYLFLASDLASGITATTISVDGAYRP
Chain of UniProt B7MMH5 (whole entry, looked up): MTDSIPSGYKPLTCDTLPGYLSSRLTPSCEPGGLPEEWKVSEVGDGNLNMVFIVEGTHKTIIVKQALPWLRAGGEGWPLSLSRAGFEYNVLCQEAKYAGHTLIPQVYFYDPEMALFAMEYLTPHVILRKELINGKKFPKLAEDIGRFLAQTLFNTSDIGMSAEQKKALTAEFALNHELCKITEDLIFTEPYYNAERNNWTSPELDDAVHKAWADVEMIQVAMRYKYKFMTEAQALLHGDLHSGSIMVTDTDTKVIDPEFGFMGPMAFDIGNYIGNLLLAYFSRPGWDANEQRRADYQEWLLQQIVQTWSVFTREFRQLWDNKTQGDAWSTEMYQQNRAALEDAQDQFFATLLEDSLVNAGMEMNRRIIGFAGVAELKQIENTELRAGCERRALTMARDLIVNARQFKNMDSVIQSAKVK
Chain of UniProt Q6PHW0 (whole entry, looked up): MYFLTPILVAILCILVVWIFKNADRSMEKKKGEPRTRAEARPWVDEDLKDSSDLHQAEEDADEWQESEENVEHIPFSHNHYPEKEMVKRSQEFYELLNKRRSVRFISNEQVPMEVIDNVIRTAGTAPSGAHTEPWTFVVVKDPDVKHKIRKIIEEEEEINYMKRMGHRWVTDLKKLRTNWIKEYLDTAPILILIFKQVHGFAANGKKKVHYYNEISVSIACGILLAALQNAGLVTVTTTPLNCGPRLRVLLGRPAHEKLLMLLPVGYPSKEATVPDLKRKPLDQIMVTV

| Substance | substrate | conditions | measurement | value |
| --- | --- | --- | --- | --- |
| B1 (Tcur_2987) | Nc1c(S(=O)(=O)O)cc(Nc2cccc(S(=O)(=O)CCOS(=O)(=O)O)c2)c2c1C(=O)c1ccccc1C2=O | pH 3, sigmoidal kinetics, together with: H2O2 1 mM | kcat/Km | 2.3e+06 M⁻¹ s⁻¹ |
| mtnK (Escherichia coli, UniProt B7MMH5) | Nc1ncnc2c1ncn2[C@@H]1O[C@H](COP(=O)(O)OP(=O)(O)OP(=O)(O)O)[C@@H](O)[C@H]1O | pH 7.8, 30 °C, together with: 5-deoxyribose | kcat/Km | 170000 M⁻¹ s⁻¹ |
| Ptb (Listeria monocytogenes, UniProt Q8Y7B7) | CCC(CC)C(=O)SCCNC(=O)CCNC(=O)[C@H](O)C(C)(C)COP(=O)(O)OP(=O)(O)OC[C@H]1O[C@@H](n2cnc3c(N)ncnc32)[C@H](O)[C@@H]1OP(=O)(O)O | pH 7.5, 25 °C, apparent | kcat/Km | 2.3e+06 M⁻¹ s⁻¹ |
| MMP2 (Homo sapiens, UniProt P08253) | CSCC[C@H](NC(=O)CNC(=O)[C@H](CC(C)C)NC(=O)[C@@H]1CCCN1C(=O)CNC(C)=O)C(=O)N[C@@H](Cc1c[nH]cn1)C(=O)NCC(=O)N[C@@H](CCCCN)C(N)=O |  | kcat/Km | 170000 M⁻¹ s⁻¹ |
| B2 (pyc H216N) | Nc1ncnc2c1ncn2[C@@H]1O[C@H](COP(=O)(O)OP(=O)(O)OP(=O)(O)O)[C@@H](O)[C@H]1O | pH 7.8, 30 °C, no pyruvate, together with: NaHCO3 20 mM, acetyl CoA 0.25 mM, Mg2+ 5 mM | kcat/Km | 140 M⁻¹ s⁻¹ |
| B3 (LYS12 D271N) | O=C(O)CC[C@H](C(=O)O)[C@@H](O)C(=O)O | pH 7.5, 25 °C, potassium acetate 100 mM, substrate as Mg complex, together with: NAD+ varied; Mg2+ 10 mM | kcat/Km | 7200 ± 200 M⁻¹ s⁻¹ |
| trypsin (Saccharopolyspora erythraea, UniProt Q54137) | NCCCC[C@H](NC(=O)c1ccccc1)C(=O)Nc1ccc([N+](=O)[O-])cc1 | pH 8, 25 °C | kcat/Km | 1530 ± 120 M⁻¹ s⁻¹ |
| B4 (Paox H64A) | CC(=O)NCCCNCCCCNCCCN | pH 10, 30 °C | kcat/Km | 62000 ± 14000 M⁻¹ s⁻¹ |
| UGT1A9 (Homo sapiens, UniProt O60656) | O=C(O)/C=C/c1ccc(O)c(O)c1 | pH 7.4, 37 °C | Km | 1010 µM and 564 µM |
| IYD (Homo sapiens, UniProt Q6PHW0) | Cc1cc(C[C@H](N)C(=O)O)cc(I)c1O | pH 7.4, 25 °C, together with: sodium dithionite 0.5% | kcat/Km | 15000 ± 2000 M⁻¹ s⁻¹ |
| B5 (ASRGL1) | NCCCC[C@H](NC(=O)C[C@H](N)C(=O)O)C(=O)O | pH 7.4, 37 °C, NaCl 100 mM | kcat/Km | 1000 ± 300 M⁻¹ s⁻¹ |
| B6 (cyc1 L72V) | CC(C)=CCC/C(C)=C/CC/C(C)=C/CO[P@@](=O)(O)OP(=O)(O)O | pH 6.5, 30 °C, together with: MgCl2 10 mM | kcat/Km | 70000 ± 20000 M⁻¹ s⁻¹ |
| AphC (Rhodococcus jostii, UniProt Q0S9X1) | CCc1ccc(O)c(O)c1 | pH 8, 25 °C, apparent, together with: O2 | kcat/Km | 206000 M⁻¹ s⁻¹ |
| BaiA1 (Clostridium scindens, UniProt P07914) | C[C@H](CCC(=O)SCCNC(=O)CCNC(=O)[C@H](O)C(C)(C)COP(=O)(O)OP(=O)(O)OC[C@H]1O[C@@H](n2cnc3c(N)ncnc32)[C@H](O)[C@@H]1OP(=O)(O)O)[C@H]1CC[C@H]2[C@@H]3[C@H](O)C[C@@H]4CC(=O)CC[C@]4(C)[C@H]3CC[C@]12C | pH 8.7, 37 °C, together with: NADH | kcat/Km | 120000 M⁻¹ s⁻¹ |

Repeated from above:
| Substance | substrate | conditions | measurement | value |
| --- | --- | --- | --- | --- |
| IYD (Homo sapiens, UniProt Q6PHW0) | Cc1cc(C[C@H](N)C(=O)O)cc(I)c1O | pH 7.4, 25 °C, together with: sodium dithionite 0.5% | kcat/Km | 15000 ± 2000 M⁻¹ s⁻¹ |
| B5 (ASRGL1) | NCCCC[C@H](NC(=O)C[C@H](N)C(=O)O)C(=O)O | pH 7.4, 37 °C, NaCl 100 mM | kcat/Km | 1000 ± 300 M⁻¹ s⁻¹ |
